Assay results gathered from unrelated publications.
Protocols differ between the studies behind these lines. Numbers after ± are the reported error.
Chain of UniProt Q969G3 (whole entry, looked up): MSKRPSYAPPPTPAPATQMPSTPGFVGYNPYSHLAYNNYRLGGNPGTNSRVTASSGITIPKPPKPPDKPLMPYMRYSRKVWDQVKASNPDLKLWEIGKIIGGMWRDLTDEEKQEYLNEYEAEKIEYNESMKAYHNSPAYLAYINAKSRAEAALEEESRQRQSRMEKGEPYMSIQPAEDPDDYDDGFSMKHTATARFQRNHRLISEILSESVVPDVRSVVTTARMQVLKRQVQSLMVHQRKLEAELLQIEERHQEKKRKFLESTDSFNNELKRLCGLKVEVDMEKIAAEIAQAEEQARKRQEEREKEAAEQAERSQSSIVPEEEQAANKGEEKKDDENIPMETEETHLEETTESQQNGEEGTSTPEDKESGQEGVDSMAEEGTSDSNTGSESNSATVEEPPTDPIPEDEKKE
Chain of UniProt Q9UQQ2 (whole entry, looked up): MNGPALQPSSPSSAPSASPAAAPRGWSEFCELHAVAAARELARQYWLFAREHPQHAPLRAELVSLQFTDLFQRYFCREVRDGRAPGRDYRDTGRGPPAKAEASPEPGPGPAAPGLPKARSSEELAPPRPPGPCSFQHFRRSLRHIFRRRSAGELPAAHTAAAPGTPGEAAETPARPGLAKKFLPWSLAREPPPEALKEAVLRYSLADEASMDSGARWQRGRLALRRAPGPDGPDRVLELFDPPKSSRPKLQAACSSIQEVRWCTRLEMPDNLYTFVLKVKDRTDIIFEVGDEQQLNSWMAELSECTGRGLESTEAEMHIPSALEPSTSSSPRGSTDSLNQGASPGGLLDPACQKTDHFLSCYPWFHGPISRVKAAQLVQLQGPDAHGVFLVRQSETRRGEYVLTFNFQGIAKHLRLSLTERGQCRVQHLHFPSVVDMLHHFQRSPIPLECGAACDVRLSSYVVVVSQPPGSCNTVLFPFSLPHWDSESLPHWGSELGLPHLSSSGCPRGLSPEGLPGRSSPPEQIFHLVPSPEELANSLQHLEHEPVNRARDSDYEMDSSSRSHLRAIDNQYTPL
Chain of UniProt Q8NET8 (whole entry, unmodified, looked up): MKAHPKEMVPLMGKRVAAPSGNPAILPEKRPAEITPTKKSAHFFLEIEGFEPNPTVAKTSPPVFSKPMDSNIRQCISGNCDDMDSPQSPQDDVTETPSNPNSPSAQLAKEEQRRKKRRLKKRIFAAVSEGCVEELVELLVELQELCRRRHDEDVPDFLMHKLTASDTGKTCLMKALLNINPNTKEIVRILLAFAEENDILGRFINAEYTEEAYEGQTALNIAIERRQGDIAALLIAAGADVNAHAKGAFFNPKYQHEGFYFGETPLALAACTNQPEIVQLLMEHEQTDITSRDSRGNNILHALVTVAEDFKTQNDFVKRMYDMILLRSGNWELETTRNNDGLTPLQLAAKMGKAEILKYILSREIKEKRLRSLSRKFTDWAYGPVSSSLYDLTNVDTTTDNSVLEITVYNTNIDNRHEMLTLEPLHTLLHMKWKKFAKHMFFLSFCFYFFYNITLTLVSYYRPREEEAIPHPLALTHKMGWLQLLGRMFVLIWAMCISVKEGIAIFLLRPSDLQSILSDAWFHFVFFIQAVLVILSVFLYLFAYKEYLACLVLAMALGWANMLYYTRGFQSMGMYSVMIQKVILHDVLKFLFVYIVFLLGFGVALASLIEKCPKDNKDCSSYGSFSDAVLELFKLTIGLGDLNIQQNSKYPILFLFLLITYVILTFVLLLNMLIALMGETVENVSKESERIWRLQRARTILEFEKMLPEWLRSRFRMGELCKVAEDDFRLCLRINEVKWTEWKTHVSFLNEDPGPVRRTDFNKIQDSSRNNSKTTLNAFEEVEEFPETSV

SMILES = COc1cc(Nc2ncc(F)c(Nc3ccc4c(n3)NC(=O)C(C)(C)O4)n2)cc(OC)c1OC; target = ACAT; test = enzyme activity, inhibitor; system = intestine; endpoint = IC50; result = > 10000 nM
SMILES = CC[C@H](C)[C@H](NC(=O)[C@H](CO)NC(=O)[C@H](C)NC(=O)[C@H](Cc1ccc(OP(=O)(O)O)cc1)NC(=O)[C@H](CCC(=O)O)NC(=O)[C@@H](NC(=O)[C@H](Cc1c[nH]cn1)NC(=O)[C@H](CC(N)=O)NC(=O)[C@H](CC(N)=O)NC(=O)[C@@H]1CCCN1C(=O)[C@H](CCC(=O)O)NC(=O)[C@H](C)NC(=O)[C@H](C)NC(=O)[C@H](CCC(N)=O)NC(=O)[C@@H]1CCCN1C(=O)[C@H](C)NC(=O)[C@@H]1CCCN1C(=O)[C@H](CCCCN)NC(=O)[C@H](CCCCN)NC(=O)CNC(=O)[C@H](CCCCN)NC(=O)[C@@H]1CCCN1C(=O)[C@H](CC(C)C)NC(=O)[C@H](CC(N)=O)NC(=O)[C@H](CC(C)C)NC(=O)[C@H](CC(=O)O)NC(=O)[C@H](C)NC(=O)[C@H](Cc1ccc(OP(=O)(O)O)cc1)NC(=O)[C@@H](NC(=O)[C@@H](NC(=O)[C@@H](N)CC(=O)O)[C@@H](C)CC)[C@@H](C)O)[C@@H](C)O)C(=O)N[C@@H](CCC(N)=O)C(=O)N[C@H](C(=O)N[C@@H](CO)C(=O)O)[C@@H](C)O; target = Tyrosine-protein phosphatase non-receptor type 11 (PTPN11, Homo sapiens, UniProt Q06124, R111D); test = enzyme activity, activator; conditions = pH 7.0, 0.2% DMSO, together with: DiFMUP 100 µM, phosphopeptide; endpoint = EC50; result = 630 ± 10 nM
SMILES = N[C@@H]1C[C@H]1c1ccccc1; target = tyramine oxidase Arthrobacter sp.; test = inhibitor; endpoint = Ki; result = 17000 ± 3000 nM
SMILES = CCCc1cc(O)c2c(c1)OC(C)(C)[C@@H]1CCC(C)=C[C@@H]21; target = Transient receptor potential cation channel subfamily V member 3 (TRPV3, Homo sapiens, UniProt Q8NET8, L420A); test = calcium uptake, agonist; system = HEK293S; conditions = mutant L420A, site 3; endpoint = EC50; result = 2660 ± 150 nM
SMILES = CSCC[C@H](NC(=O)CNC(=O)[C@H](Cc1ccccc1)NC(=O)[C@H](CC(=O)O)NC(=O)CNC(=O)c1ccc2c(c1)C(=O)OC21c2ccc(N(C)C)cc2Oc2cc(N(C)C)ccc21)C(=O)N[C@@H](CO)C(=O)N[C@@H](CCCNC(=N)N)C(=O)N[C@@H](CC(=O)O)C(=O)N[C@H](C(=O)N[C@@H](Cc1ccc(OP(=O)(O)O)cc1)C(=O)N[C@@H](CO)C(=O)N[C@H](C(=O)N[C@@H](CC(=O)O)C(=O)N[C@@H](Cc1ccc(O)cc1)C(=O)N[C@@H](Cc1ccc(O)cc1)C(=O)N[C@@H](CCCNC(=N)N)C(=O)N[C@H](C(=O)N[C@@H](CC(=O)O)C(=O)O)C(C)C)[C@@H](C)O)C(C)C; target = SH2B3, SH2 domain (Homo sapiens, UniProt Q9UQQ2); test = binding; endpoint = Kd; result = 786 nM
SMILES = C[C@H]1CN(c2n[nH]c3nc(N[C@H]4CC[C@H](NS(=O)(=O)CCC(F)(F)F)CC4)ncc23)CCO1; target = SWI/SNF-related matrix-associated actin-dependent regulator of chromatin subfamily E member 1 (Homo sapiens, UniProt Q969G3); test = biochemical; endpoint = IC50; result = ≥ 20000 nM
SMILES = c1ccc2c(NCCCCCCCNc3c4c(nc5ccccc35)CCCC4)c3c(nc2c1)CCCC3; target = AChE (Phlebotomus papatasi, UniProt M1F887); test = enzyme activity, inhibitor; endpoint = IC50; result = 5 nM
SMILES = NCC(CS(=O)(=O)O)c1ccc(Cl)cc1 (centres unmarked); target = de novo protein S23; test = NMR; endpoint = Kd; result = ~40000 nM

Excerpt of the above:
SMILES = C[C@H]1CN(c2n[nH]c3nc(N[C@H]4CC[C@H](NS(=O)(=O)CCC(F)(F)F)CC4)ncc23)CCO1; target = SWI/SNF-related matrix-associated actin-dependent regulator of chromatin subfamily E member 1 (Homo sapiens, UniProt Q969G3); test = biochemical; endpoint = IC50; result = ≥ 20000 nM
